Assay results pooled from the literature.
Each numbered part is a random draw from the data of one study; scales do not carry over between parts. Substitutions count along the parent as printed.

Block 1
Target: Ras GTPase-activating protein-binding protein 1, C-terminal RGG region (G3BP1, Homo sapiens, UniProt Q13283)
Chain of UniProt Q13283 (whole entry, looked up): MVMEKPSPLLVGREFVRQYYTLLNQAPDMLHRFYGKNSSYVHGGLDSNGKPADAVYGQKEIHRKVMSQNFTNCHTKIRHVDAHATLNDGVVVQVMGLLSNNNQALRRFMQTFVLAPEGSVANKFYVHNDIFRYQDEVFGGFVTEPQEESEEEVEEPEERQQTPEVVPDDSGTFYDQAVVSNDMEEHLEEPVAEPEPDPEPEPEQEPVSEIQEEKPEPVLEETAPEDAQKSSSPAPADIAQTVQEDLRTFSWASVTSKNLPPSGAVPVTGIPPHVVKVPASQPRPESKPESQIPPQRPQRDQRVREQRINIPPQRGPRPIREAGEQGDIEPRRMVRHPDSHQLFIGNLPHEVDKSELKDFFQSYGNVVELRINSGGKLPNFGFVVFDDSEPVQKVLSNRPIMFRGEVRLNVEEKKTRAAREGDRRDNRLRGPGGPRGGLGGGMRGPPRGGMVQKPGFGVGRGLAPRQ
Method: RNA Bind-n-Seq
Molecule type: RNA
Medium: in vitro
Concentration: 1 µM
Setting: whole 134-nt RNA, ends assumed
Added: 150 mM KCl
Reference: input library
Direction: higher = stronger binding
| Oligonucleotide | log2 enrichment |
| --- | --- |
| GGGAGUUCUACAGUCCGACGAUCAGUCCUGUGCUACACAUCGUAUGUACCGAAUCGGGGUUUUGGGGUUUUGGUUUUGGGGAAAGUAUUAUGUUACGCCGUUCGGAUCUGCACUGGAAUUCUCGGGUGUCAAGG | -0.368 |
| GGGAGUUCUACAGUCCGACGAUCCAAGUCCUGUGCUACACAUCGUAUGUACCGAAUCGGUUUUUGGAAAGGAAAAAGGAAAGUAUUAUGUUACGCCGUUCGGAUCUGCACUUCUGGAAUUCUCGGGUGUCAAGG | -1.74 |
| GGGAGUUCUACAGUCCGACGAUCUGGGAGGUGGAUUUUGUUUAUUUUUUUAGCUCAUUUCCAGGGGUGGGAAUGUUUUUUUAAUAUGUGUCAUGAAUAAAGUUGUUUUUGAAAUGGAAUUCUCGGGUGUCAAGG | 4.08 |
| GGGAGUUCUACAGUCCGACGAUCAAGUCCUGUGCUACACAUCGUAUGUACCGAAUCGGGCCCCGGGCCCCGGGGCCCCGGAAAGUAUUAUGUUACGCCGUUCGGAUCUGCACUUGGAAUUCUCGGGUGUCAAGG | -1.55 |
| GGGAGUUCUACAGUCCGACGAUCCACAGACAACACGCACCCACACAGACACAGAGGGAAGGGGUUGGGAUGGGGACAGGGUGCAGAGCAGGGCGGGGUAGGACCCCAGCCCCUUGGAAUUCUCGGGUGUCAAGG | -0.465 |
| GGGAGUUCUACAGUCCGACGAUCUGGGAGGUGGAUUUUGUUUAUUUUUUUAGCUCAUUUCCAGGGGUGAGAAUUUUUUUUUAAUAUGUGUCAUGAAUAAAGUUGUUUUUGAAAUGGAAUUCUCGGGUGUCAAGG | 2.69 |
| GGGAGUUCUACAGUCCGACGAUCCCUGUGCUACACAUCGUAUGUACCGAAUCAAAUUUUUUUAAACCCCCCCAAAUUUUUAAAAAAGUAUUAUGUUACGCCGUUCGGAUCUGCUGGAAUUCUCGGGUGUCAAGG | -0.804 |
| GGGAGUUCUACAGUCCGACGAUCCACAGACAACACGCACCCAAAAAGACACAGAGGGAAGGGGUUGGGAUGGGGACAGGGUGCACAGCAGGGCGGGGUAGGACCCCAGCCCCUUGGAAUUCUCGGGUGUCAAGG | -0.326 |
| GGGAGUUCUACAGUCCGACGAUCAGUCCUGUGCUACACAUCGUAUGUACCGAAUCGGGGAGGGGAAAGGGGAAAAAGGGGAAAGUAUUAUGUUACGCCGUUCGGAUCUGCACUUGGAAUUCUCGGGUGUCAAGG | 1.56 |
| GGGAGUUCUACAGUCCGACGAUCGCUUAUGUAGACAUGAGGAAGAUUGGCAGUAGCCGGGGAAUGGUUUCUGCAUACCCUCGACAGCUAGAGUCAUUAAUCCGCUUAGCAGAAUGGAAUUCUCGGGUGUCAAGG | -0.503 |
| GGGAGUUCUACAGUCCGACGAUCCACAGACAAAACGCACCCACACAGACACAGAGGGAAGGGGUUGGGAUGGGGACAGGGUGCACAGCAGGGCGGGGUAGGACCCCAGCCCCUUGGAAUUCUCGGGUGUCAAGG | -0.281 |
| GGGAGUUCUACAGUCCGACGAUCACCAUGCAGGUGGGCAUCUUUGGGAAGUGGGGCAAGGGGGGGAUAGGGAGGGGGGUAACACUUUGGGAACAGGUGGUCGCAGGUCGUUUCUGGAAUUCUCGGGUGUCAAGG | 2.28 |
| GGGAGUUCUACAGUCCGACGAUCCUCAAGUCCUGUGCUACACAUCGUAUGUACCGAAUCGGCCCGGCCCGGCCCGGGAAAGUAUUAUGUUACGCCGUUCGGAUCUGCACUUCCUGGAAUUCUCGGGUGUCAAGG | -1.54 |
| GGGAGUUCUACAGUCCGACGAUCCAAGUCCUGUGCUACACAUCGUAUGUACCGAAUCGGAAAGGGGAAAGGAAAGGGGAAAGUAUUAUGUUACGCCGUUCGGAUCUGCACUUCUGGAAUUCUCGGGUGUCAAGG | -0.827 |

Block 2
Target: CCNA2, cyclin fold, Cln2 fusion (human)
Method: yeast growth competition, sequencing
Medium: yeast
Setting: strong parent motif
Reference: not given
Direction: higher = stronger binding
Starting sequence: RBL2 docking peptide (human); STTRRRLFVENDS
| Change | normalised enrichment score |
| --- | --- |
| STTRRPLFVENDS [R6P] | 1.45 |
| STTRRDLFVENDS [R6D] | -0.00284 |
| STTARRLFVENDS [R4A] | 4.14 |
| SNTRRRLFVENDS [T2N] | 6.36 |
| STTRRRLFKENDS [V9K] | 6.31 |
| STTRRRLFVEYDS [N11Y] | 6.59 |
| STTRRRLFVENFS [D12F] | 5.19 |
| STTRRRLFVENGS [D12G] | 5.66 |
| SFTRRRLFVENDS [T2F] | 4.74 |
| STTRARLFVENDS [R5A] | 0.103 |
| STTRRVLFVENDS [R6V] | 3.22 |
| STTRRRLFVPNDS [E10P] | 6.44 |
| STTRFRLFVENDS [R5F] | -0.676 |
| KTTRRRLFVENDS [S1K] | 5.83 |
| STTCRRLFVENDS [R4C] | 4.42 |
| STTHRRLFVENDS [R4H] | 2.13 |
| STTRPRLFVENDS [R5P] | 0.439 |
| SITRRRLFVENDS [T2I] | 4.59 |
| STTRRRLFVENDH [S13H] | 5.9 |
| STTRRRLFVEDDS [N11D] | 6.52 |
| STTRRRLFVENPS [D12P] | 5.74 |
| STTRRCLFVENDS [R6C] | 5.09 |
| STTRTRLFVENDS [R5T] | 2.01 |
| STTRRRLHVENDS [F8H] | 0.017 |
| STTRRRLFVQNDS [E10Q] | 4.89 |

Block 3
Target: Interferon regulatory factor 7, full length, phosphomimetic (IRF7, Homo sapiens, UniProt Q92985, residues 1-503, S101K/S471D/S472D/S475D/S476D/S477D/S483D/S484D/S487D)
Method: protein-binding microarray
Molecule type: double-stranded DNA, one strand shown
Medium: in vitro
Concentration: 250 nM
Setting: 60-bp whole probe
Added: salmon DNA 0.4 mg/ml
Reference: random background probes
Direction: higher = stronger binding
Constant ends, left off below: GCCTAGCAC … GTCTTGATTCGCTTGACGCTGCTG
Construct (chain): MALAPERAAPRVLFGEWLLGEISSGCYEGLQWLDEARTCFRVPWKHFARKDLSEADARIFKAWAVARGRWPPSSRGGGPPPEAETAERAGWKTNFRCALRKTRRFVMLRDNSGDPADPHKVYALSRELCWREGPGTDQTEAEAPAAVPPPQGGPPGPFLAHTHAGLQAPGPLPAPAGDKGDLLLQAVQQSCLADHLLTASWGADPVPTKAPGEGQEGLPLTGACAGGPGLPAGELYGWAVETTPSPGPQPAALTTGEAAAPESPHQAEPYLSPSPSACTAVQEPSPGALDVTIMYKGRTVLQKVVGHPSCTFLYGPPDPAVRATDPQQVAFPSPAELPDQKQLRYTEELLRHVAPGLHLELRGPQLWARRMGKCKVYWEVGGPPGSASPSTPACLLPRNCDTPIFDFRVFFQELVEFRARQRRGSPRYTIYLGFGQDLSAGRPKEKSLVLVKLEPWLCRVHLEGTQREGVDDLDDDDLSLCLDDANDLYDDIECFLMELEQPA
| Oligonucleotide | log fluorescence [z-score] |
| --- | --- |
| GACGGTCTCGGACTGGGCACGTGCTAG | -0.192 |
| CAGAATCCCCTTCTACTCTCGTGCTAG | 0.311 |
| GACGGTTTCGGTTTCGGGGCGTGCTAG | 13.8 |
| TCACCTATAGGTTTCTAACTGTGCTAG | 0.326 |
| GACCGTATCGGTATCGGGACGTGCTAG | 1.2 |
| GGTATTATTTATTGTAGCCTCGTGCTA | 0.282 |
| TATTCCCCATCACTCACTCTGTGCTAG | 3.05 |
| GACGATATCAGTTTCGACACGTGCTAG | 2.64 |
| TTAGGACTGGGGTATCTGTTAGTGCTA | -0.395 |
| GACGGTATCCACACTGGGGACGTGCTA | -0.312 |
| TTTATTTATTTATTTATTTAGTGCTAG | 0.984 |
| GACGGACTGAGTCTCGGGACGTGCTAG | -0.291 |
| TTAGATGTCGGGTATCGATTAGTGCTA | 0.362 |
| CTCATGTTACATTTATATCTGTGCTAG | 0.664 |
| TTAGGACTGGGGGATCGGTTAGTGCTA | 0.75 |
| GTCATTCTCAACCCTGGTGCTGTGCTA | 0.35 |
| GACGAACTGAGTCTGGAGACGTGCTAG | -0.346 |
| CACGATATCAGACTGGAGACGTGCTAG | 0.195 |
| GACAGTTTCGGGTATCGGGACGTGCTA | 6.61 |
| GACGGACTAGACTATCGGGACGTGCTA | -0.583 |
| GACGGTATCGGGACTGGTGACGTGCTA | -0.254 |
| TATTATATATTTATGTATACGTGCTAG | 0.823 |
| GACGGACTGGGTATCGCGACGTGCTAG | -0.545 |
| TTAGGTATCGCTCTCGGTTAGTGCTAG | 0.701 |
| GACGGTTTCGGTTTCGGGAGGTGCTAG | 14.3 |

Block 4
Target: RNA binding protein fox-1 homolog 2, RRM domain, GST-SBP tag (RBFOX2, Homo sapiens, UniProt O43251-10, residues 100-194)
Method: RNA Bind-n-Seq
Molecule type: RNA
Medium: in vitro
Concentration: 365 nM
Setting: natural RNA segment, single round, ends assumed
Reference: no-protein control
Direction: higher = stronger binding
Construct (chain): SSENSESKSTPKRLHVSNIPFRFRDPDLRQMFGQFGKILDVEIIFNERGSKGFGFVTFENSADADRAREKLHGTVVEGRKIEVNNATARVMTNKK
| Oligonucleotide | RBNS enrichment (R) |
| --- | --- |
| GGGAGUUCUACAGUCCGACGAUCUGUGUUUUUAGAUGGCACAUUGGUCCAUUUGUACACACCUGUCAUCGGGAUCUUAGUACAUGGACUUAAAAGGCAACACUACAUCAAUGGUUUGUAUAUGUGGUGAAUUCUGGAAUUCUCGGGUGCCAA | 0.406 |
| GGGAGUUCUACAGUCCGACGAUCAAAUGUGACCGGUGUAGCUGUAGUUUGUACUUUCCUGGGGACCUUCUGCUGGGGUUUGUGUAAGCUGUGAUUCUUUCCCUUCCUAAUAGGUUGAGCUUGACAUGGAAAGGUGGAAUUCUCGGGUGCCAA | 2.2 |
| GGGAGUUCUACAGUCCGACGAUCGCCAAAGACAUUUCAAGUGCCUGUAACUGAUUUGUCCAUAUUUAUAAACACUGAUCUGGAAAUUGGUCCUGUGAUGCACGUGCUUUGCCCUGGAUGCACCUGAACUCGUCUGGAAUUCUCGGGUGCCAA | 11.2 |
| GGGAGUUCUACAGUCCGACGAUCAGAAUAAGUCACAUUGGUUCCAUGGCCACAAACCAUUCAGAUCAGCCACUUGCUGACCCUGGUUCUUAAGGACACAUGACAUUAGUCCAAUCUUUCAAAAUCUUGUCUUAUGGAAUUCUCGGGUGCCAA | 0.26 |
| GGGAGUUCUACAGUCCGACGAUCUAACAGAAAAAAAUUAUACAAUUUUGACAAUAUUAUUUUUCGUAUCAGGUUGCUGUUUAAUUUUGGAGGGGGUGGGGAAAUAGUUCUGGUGCCUUAACGCAUGGCUGGAAUGGAAUUCUCGGGUGCCAA | 4.05 |
| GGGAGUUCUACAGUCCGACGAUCAUUUUUUCCUGUACUGGAUGGCUAGGAUUCUAGAGAAUUGAUUAUAAAAUAUUUUCAAUACAUCCAACAUUGCACUUCUCAUUUUUUAAAUGAUUCUGUCACGUAGAAUCUGGAAUUCUCGGGUGCCAA | 0.985 |
| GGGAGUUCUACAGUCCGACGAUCGAAGGCUGAACUUACAUAGAGGUUUUACUCAGCAAUACUUAGAUGUCUAACAGUUUAAUUGCUCCAGAGCUUUAUAGGUAUUUAAAGACUGAUUAGUAAAUAAAAUUGCCUGGAAUUCUCGGGUGCCAA | 0.779 |
| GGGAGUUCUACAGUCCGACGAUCUCCUCUGGACUCCCAAGGAGGCUGGUGCCAGGGAGAUGCCCUCACCCACCCCCAUUUGCACUGAGAAGAGAAACUAUGGAGUUUUGUCUCCAAGAAUAAAGAUAGAGAGUUGGAAUUCUCGGGUGCCAA | 0.631 |
| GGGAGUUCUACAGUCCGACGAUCUUUGCAUGCCGACUUACAUAUAUUUGCAUGUUCGUUGACUAUCAAAGAGUGCAGAGCUCUCCCCAGCCCCGUGGGUGGUGACUUUGUUUUCCUGCGGGGCUCAGCCCCCUUGGAAUUCUCGGGUGCCAA | 4.71 |
| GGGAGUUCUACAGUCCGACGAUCCCUCCUGAGCCUGCUGGAUGAGACUCCUGCCUGGACCCCCUGCAGGGCAACAGCUGCUGCUGCUUUUGAACAGAAUGGUAGACAGCAUUUACCCUCAGCCACUUCCUCUGUGGAAUUCUCGGGUGCCAA | 0.256 |
| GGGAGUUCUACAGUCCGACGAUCAGUGCCUUCUGUCUGCUCGUUAGCUUUAAUCAAUCAUGCCCUGCCUUGUCCCUCUCACUCCCCAGCCCCACCCCUAAGUGCCCAAAGUGGGGAGGGACAAGGGAUUCUGGUGGAAUUCUCGGGUGCCAA | 0.488 |
| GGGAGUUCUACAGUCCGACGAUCAGGGGUGCUGUAAGAACUCAGGUUAGUAGCAUACUUGAGUAAUCAGGGUCAAAGUGUCUCACCACAAACAAAGGUAUCAAAUCACAAGCCUGGCUGGCUGAGGUGGUGUGUGGAAUUCUCGGGUGCCAA | 0.705 |
